Measured values from different studies.
Compare with care: the assays were run in different laboratories. ± gives the spread as reported.

SMILES	test	test system	setting	Cmax
CC(C)[C@H](NC(=O)CNC(=O)[C@H](CCC(N)=O)NC(=O)[C@H](C)N)C(=O)O	LC-MS/MS	human, male, plasma	intravenous, 30 mg/kg three times daily, day 3, first dose, 10 min infusion, geometric mean	5100 ng/mL
CC(=O)N[C@H](CC(=O)O)C(=O)N[C@H](Cc1c[nH]c2ccccc12)C(=O)N[C@H](Cc1ccccc1)C(=O)N[C@H](CCCCN)C(=O)N[C@H](C)C(=O)N[C@H](Cc1ccccc1)C(=O)N[C@H](Cc1ccc(O)cc1)C(=O)N[C@H](CC(=O)O)C(=O)N[C@H](CCCCN)C(=O)N[C@@H](C(=O)N[C@H](C)C(=O)N[C@H](CCC(=O)O)C(=O)N[C@H](CCCCN)C(=O)N[C@H](Cc1ccccc1)C(=O)N[C@H](CCCCN)C(=O)N[C@H](CCC(=O)O)C(=O)N[C@H](C)C(=O)N[C@H](Cc1ccccc1)C(N)=O)C(C)C		human, statin-treated high-risk CHD, male, plasma	oral, 500 mg daily, day 1, 0 to 2 h, mean, detected subjects only	23.4 ng/mL
CCCOc1ccc(S(N)(=O)=O)cc1-c1nc2c(CCC)nn(C)c2c(=O)[nH]1		healthy male humans, plasma	oral, 200 mg of udenafil, together with: dapoxetine 60 mg	360 ± 110 ng/mL
O=C(CCc1ccc(CNC(C(=O)O)C2CCCCC2)cn1)NO (centres unmarked)		human, plasma	oral, 40 mg once daily, day 7, geometric mean	181 ng/mL
CC[C@H](C)[C@H](NC(=O)[C@H](CC(C)C)NC(=O)[C@H](Cc1c[nH]c2ccccc12)NC(=O)[C@H](C)NC(=O)[C@@H](NC(=O)[C@H](Cc1ccccc1)NC(=O)[C@H](CC(=O)O)NC(=O)[C@H](CCCNC(=N)N)NC(=O)[C@H](C)NC(=O)[C@H](C)NC(=O)[C@H](CC(C)C)NC(=O)[C@H](C)NC(=O)[C@H](CC(=O)O)NC(=O)[C@H](CC(C)C)NC(=O)[C@@H](NC(=O)[C@@H](NC(=O)[C@H](C)NC(=O)[C@H](CC(C)C)NC(=O)[C@H](CCC(=O)O)NC(=O)[C@H](CO)NC(=O)[C@H](CO)NC(=O)[C@H](Cc1ccccc1)NC(=O)[C@@H](NC(=O)CNC(=O)[C@H](CCC(=O)O)NC(=O)CNC(=O)[C@@H](N)Cc1cnc[nH]1)[C@@H](C)O)[C@@H](C)O)[C@@H](C)CC)[C@@H](C)CC)C(=O)N[C@@H](C)C(=O)N[C@H](C(=O)N[C@@H](CCCCN)C(=O)N[C@H](C(=O)N[C@H](C(=O)N[C@@H](CC(=O)O)C(=O)N[C@@H](CCCCN)C(=O)N[C@@H](CCCCN)C(=O)N[C@@H](CCCCN)C(=O)N[C@@H](CCCCN)C(=O)N[C@@H](CCCCN)C(=O)N[C@@H](CCCCN)C(N)=O)[C@@H](C)O)[C@@H](C)CC)[C@@H](C)O		healthy humans, plasma	subcutaneous, 10 mg once weekly, 6 doses, day 36, geometric mean	5.94 nM
CC(=O)Nc1ccc(C(N)=O)c(F)c1		human, plasma	oral, 25 mg	30.7 µg-eq/L
Cc1nc(C)c(C=[N+]([O-])C(C)(C)C)nc1C		healthy human, both sexes, serum	oral, 600 mg twice daily, 7 days	9580 ng/mL
[2H]C([2H])([2H])NC(=O)c1ccc(N2C(=S)N(c3ccc(C#N)c(C(F)(F)F)c3)C(=O)C2(C)C)cc1F		healthy male human, plasma	oral, 160 mg, fasted, single dose	6200 ng/mL
O=C(CCc1ccc(CNC(C(=O)OC2CCCC2)C2CCCCC2)cn1)NO (centres unmarked)		human, plasma	oral, 20 mg once daily, day 1, geometric mean	103 ng/mL
CCc1cc(Nc2nc(-c3ccc(-n4cnc(C)c4)c(F)c3)cs2)c(C)cc1C		human, both sexes, plasma	oral, 100 mg once daily, day 14, multiple dose, geometric mean	409 ng/mL
CCc1c2c(nc3ccc(O)cc13)-c1cc3c(c(=O)n1C2)COC(=O)[C@]3(O)CC		human patients, plasma	intravenous, 42 mg/m^2 of parent drug	109 ng/mL
[2H]C([2H])([2H])Oc1cc2c(cc1OC([2H])([2H])[2H])[C@H]1CC(=O)[C@H](CC(C)C)CN1CC2		human CYP2D6 extensive metabolizers, plasma	oral, 25 mg, fasted, geometric mean	0.27 ng/mL
CC[C@H](C)[C@H](NC(=O)[C@H](CC(C)C)NC(=O)[C@H](Cc1c[nH]c2ccccc12)NC(=O)[C@H](C)NC(=O)[C@@H](NC(=O)[C@H](Cc1ccccc1)NC(=O)[C@H](CC(=O)O)NC(=O)[C@H](CCCNC(=N)N)NC(=O)[C@H](C)NC(=O)[C@H](C)NC(=O)[C@H](CC(C)C)NC(=O)[C@H](C)NC(=O)[C@H](CC(=O)O)NC(=O)[C@H](CC(C)C)NC(=O)[C@@H](NC(=O)[C@@H](NC(=O)[C@H](C)NC(=O)[C@H](CC(C)C)NC(=O)[C@H](CCC(=O)O)NC(=O)[C@H](CO)NC(=O)[C@H](CO)NC(=O)[C@H](Cc1ccccc1)NC(=O)[C@@H](NC(=O)CNC(=O)[C@H](CCC(=O)O)NC(=O)CNC(=O)[C@@H](N)Cc1c[nH]cn1)[C@@H](C)O)[C@@H](C)O)[C@@H](C)CC)[C@@H](C)CC)C(=O)N[C@@H](C)C(=O)N[C@H](C(=O)N[C@@H](CCCCN)C(=O)N[C@H](C(=O)N[C@H](C(=O)N[C@@H](CC(=O)O)C(=O)N[C@@H](CCCCN)C(=O)N[C@@H](CCCCN)C(=O)O)[C@@H](C)O)[C@@H](C)CC)[C@@H](C)O	immunoaffinity LC-MS/MS	healthy human subjects, plasma	subcutaneous, 10 mg once weekly, day 36 after 6 doses, steady state, geometric mean	0.716 nM
Cn1c(=O)oc2ccc(-c3ccc(CC(C#N)NC(=O)C4CNCCCO4)c(F)c3)cc21 (centres unmarked)		human, plasma	10 mg once daily, day 28, geometric mean	58.6 ng/mL

A few entries again:
SMILES	test	test system	setting	Cmax
O=C(CCc1ccc(CNC(C(=O)OC2CCCC2)C2CCCCC2)cn1)NO (centres unmarked)		human, plasma	oral, 20 mg once daily, day 1, geometric mean	103 ng/mL
CCCOc1ccc(S(N)(=O)=O)cc1-c1nc2c(CCC)nn(C)c2c(=O)[nH]1		healthy male humans, plasma	oral, 200 mg of udenafil, together with: dapoxetine 60 mg	360 ± 110 ng/mL
